Published values collected from several papers.
A part holds a random share of what one study measured.
UniProt Q13153, sequence (whole entry, looked up): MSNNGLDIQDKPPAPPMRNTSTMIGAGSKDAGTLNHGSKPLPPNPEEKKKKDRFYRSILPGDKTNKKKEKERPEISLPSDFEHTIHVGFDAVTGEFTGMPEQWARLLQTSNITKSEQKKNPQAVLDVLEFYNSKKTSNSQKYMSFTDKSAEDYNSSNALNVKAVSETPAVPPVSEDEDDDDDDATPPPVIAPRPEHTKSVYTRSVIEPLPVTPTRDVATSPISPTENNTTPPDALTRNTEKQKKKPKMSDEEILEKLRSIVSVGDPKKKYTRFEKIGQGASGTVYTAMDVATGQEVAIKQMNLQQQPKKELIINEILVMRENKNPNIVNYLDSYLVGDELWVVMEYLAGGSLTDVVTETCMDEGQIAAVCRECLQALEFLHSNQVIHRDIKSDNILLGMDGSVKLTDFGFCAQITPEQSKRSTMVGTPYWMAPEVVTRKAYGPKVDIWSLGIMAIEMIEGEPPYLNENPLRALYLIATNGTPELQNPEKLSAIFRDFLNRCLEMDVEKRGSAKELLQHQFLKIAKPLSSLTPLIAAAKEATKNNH

Set 1 — technique: protein-binding microarray; form: double-stranded DNA, one strand shown; matrix: in vitro; tested at: 2540 nM top; notes: 60-bp whole probe; together with: salmon DNA 0.4 mg/ml; baseline: random background probes; direction: higher = stronger binding; shared flanks, not repeated: GCCTAGCAC … GTCTTGATTCGCTTGACGCTGCTG
Target: Interferon regulatory factor 3, full length, phosphomimetic (IRF3, Homo sapiens, UniProt Q14653, residues 1-427, S386D/S396D/S398D/S402D/T404D/S405D)
Residues (chain): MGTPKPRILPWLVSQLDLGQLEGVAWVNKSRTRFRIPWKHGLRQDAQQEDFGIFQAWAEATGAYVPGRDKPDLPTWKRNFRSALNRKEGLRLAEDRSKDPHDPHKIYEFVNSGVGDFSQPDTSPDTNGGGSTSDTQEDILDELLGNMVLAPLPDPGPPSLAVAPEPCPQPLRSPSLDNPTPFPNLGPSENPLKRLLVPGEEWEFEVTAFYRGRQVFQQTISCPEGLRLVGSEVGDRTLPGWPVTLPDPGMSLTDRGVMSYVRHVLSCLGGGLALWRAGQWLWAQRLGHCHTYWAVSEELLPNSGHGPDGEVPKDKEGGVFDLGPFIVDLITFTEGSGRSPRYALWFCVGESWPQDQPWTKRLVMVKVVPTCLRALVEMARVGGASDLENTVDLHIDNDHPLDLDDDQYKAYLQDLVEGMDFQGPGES
Strand | fitted relative affinity [z-score]
GCCCTTATCCAATCAGAATTGTGCTAG | 2.01
GACGGTATCCTACTGCTGCCGTGCTAG | 2.44
CACGAACTGAGTCTCGAGACGTGCTAG | -0.121
CCCGCTTTTTTTTTTTTTTTGTGCTAG | 0.423
GACGGTTTCTGTTCCGGGACGTGCTAG | 6.38
GACGAAATCAGTCTCGAGACGTGCTAG | 0.576
GACGGACTGGACTATCGGGTCGTGCTA | -0.391
ATAGGTATCCTTATCCTTTAGTGCTAG | 5.5

Set 2 — technique: aptamer microarray, sandwich; form: DNA with 2'F-ANA; matrix: in vitro; tested at: 200 nM; together with: Cy3 exosite-II aptamer, 400 nM; direction: higher = stronger binding; strand: GGTTGGTGTGGTTGG
Target: Prothrombin, mature alpha-thrombin (F2, Homo sapiens, UniProt P00734)
Notes: whole 15-mer aptamer, many near background
Modification | mean fluorescence intensity [a.u.]
2'F-ANA at 2 3 4 6 8 9 12 13 15 | 524
2'F-ANA at 4 5 6 7 9 10 14 | 47.7
2'F-ANA at 3 4 9 11 13 | 496
2'F-ANA at 1 2 6 8 9 10 11 14 15 | 46.9
2'F-ANA at 2 3 4 6 7 8 9 10 15 | 210
2'F-ANA at 3 6 12 13 14 15 | 609
2'F-ANA at 1 2 3 5 9 10 11 12 14 15 | 47.2
2'F-ANA at 1 2 6 7 8 9 13 | 100

Set 3 — technique: protein-binding microarray; form: double-stranded DNA, one strand shown; matrix: in vitro; tested at: 0.8 µM; notes: whole 60-bp probe, no competitor; direction: higher = stronger binding
Target: Centromere-binding protein 1, full length, N-terminal tag (CBF1, Saccharomyces cerevisiae, UniProt P17106, residues 1-351)
UniProt P17106, sequence (whole entry, looked up): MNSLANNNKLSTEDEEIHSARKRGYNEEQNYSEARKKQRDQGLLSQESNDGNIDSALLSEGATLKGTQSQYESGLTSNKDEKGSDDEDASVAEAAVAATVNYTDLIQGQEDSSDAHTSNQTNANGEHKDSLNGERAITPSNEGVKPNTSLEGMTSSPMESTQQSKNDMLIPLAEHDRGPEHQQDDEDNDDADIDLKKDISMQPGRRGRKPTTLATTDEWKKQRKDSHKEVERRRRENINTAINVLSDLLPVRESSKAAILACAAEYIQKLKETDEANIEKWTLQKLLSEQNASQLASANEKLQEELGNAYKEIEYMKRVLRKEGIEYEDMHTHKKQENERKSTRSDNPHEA
Strand | fluorescence intensity
GAAATCTCATGGATCCTCGTGAGCAACATTTTCTAGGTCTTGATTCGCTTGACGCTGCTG | 657 a.u.
GAAGGGGCAAGACACCATCTGATGGGTTGAAAATAGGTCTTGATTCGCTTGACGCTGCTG | 556 a.u.
CTAAAGGGAGGCTGTCACCAGGTTCCCCTATACTTCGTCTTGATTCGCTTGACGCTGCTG | 489 a.u.
CTAATATCAATATGACATGTGATCTCACTCCGCTTCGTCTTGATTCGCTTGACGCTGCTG | 3210 a.u.
GAAGATATCTCAGATGACGTCATTGAGCTAGCTTAGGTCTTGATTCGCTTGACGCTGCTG | 507 a.u.
CTAGTGAAAATTAATATGGTGACGAACGACGGATTCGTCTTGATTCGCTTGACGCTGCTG | 490 a.u.
GAACAGTCATACAAGCACGAGGAAAAAGAGGACTAGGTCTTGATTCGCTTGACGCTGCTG | 659 a.u.
CTATCAGCGTTTTCATGTGAGATTTGCTTTATTTTCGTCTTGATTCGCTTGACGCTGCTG | 545 a.u.

Other studies, line by line
Compound | target | observed | technique | tested at | endpoint | value
O=C(NS(=O)(=O)c1ccc(NCC2CCOCC2)c([N+](=O)[O-])c1)c1ccc(N2CCN(Cc3ccc(C(F)(F)F)cc3-c3ccc(Cl)cc3)CC2)cc1Oc1cnc2[nH]ccc2c1 | Serine/threonine-protein kinase PAK 1 (PAK1, Homo sapiens, UniProt Q13153) | cell-free assay | competition with immobilised ligand | 1 µM | remaining binding | 100%
